# Measurements collected from several papers.
# A part holds a random share of what one study measured. Positions count from the first letter of the parent shown.

# Study 1
# Target: CCNB1, cyclin fold, Cln2 fusion (human)
# Technique: yeast growth competition, sequencing
# Matrix: yeast
# Notes: weak parent motif
# Reference: not given
# Reading: higher = stronger binding
# Starting sequence: TICRR docking peptide (human); TKVRRNLFNQELL
Variant,normalised enrichment score
F8A,-0.435
L7A,0.0923
R5A L7A,0.065
R5K,0.281
N9A,0.722
R5A,0.56
N6A,0.647
Q10A,-0.059
L12A,0.808
F8L,0.628

# Study 2
# Target: Sal-like protein 4, full length isoform A (SALL4, Homo sapiens, UniProt Q9UJQ4, residues 1-1053)
# Sequence of UniProt Q9UJQ4 (whole entry, looked up): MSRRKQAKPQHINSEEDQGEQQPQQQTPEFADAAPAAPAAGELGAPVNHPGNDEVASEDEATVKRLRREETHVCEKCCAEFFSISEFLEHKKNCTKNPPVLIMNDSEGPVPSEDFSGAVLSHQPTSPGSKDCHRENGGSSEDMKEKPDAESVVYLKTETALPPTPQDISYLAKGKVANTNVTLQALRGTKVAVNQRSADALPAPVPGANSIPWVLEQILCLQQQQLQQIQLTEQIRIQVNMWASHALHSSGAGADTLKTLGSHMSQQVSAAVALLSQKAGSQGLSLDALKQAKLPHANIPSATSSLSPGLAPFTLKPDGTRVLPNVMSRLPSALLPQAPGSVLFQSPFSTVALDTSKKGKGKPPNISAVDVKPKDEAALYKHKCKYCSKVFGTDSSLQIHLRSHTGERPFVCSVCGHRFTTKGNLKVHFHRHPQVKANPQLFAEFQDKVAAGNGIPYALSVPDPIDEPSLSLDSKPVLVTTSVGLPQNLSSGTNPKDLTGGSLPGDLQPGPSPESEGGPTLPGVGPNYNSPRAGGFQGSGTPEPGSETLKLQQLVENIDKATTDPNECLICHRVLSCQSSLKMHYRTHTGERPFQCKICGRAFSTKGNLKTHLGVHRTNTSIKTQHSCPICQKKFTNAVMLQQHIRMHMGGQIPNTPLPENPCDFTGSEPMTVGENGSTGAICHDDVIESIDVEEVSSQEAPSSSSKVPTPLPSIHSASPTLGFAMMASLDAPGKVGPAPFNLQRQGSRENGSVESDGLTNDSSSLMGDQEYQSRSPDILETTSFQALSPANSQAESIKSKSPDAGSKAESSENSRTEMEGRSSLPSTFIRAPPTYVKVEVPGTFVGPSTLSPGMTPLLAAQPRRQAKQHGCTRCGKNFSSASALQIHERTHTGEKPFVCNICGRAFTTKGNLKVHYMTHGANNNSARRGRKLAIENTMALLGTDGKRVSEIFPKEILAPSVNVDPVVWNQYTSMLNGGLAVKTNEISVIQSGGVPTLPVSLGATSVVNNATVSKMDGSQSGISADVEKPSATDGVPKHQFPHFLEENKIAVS
# Technique: universal PBM
# Molecule type: double-stranded DNA, one strand shown
# Matrix: in vitro
# Concentration: 600 nM
# Notes: 8-mer, flanks averaged, mean of replicates
# Reading: higher = stronger binding
Strand,E-score
ATCAAAAT,0.225
GCGTTGGA,-0.182
ACTTTCCC,-0.123
AATTCCCG,0.0417
AGATTGAC,-0.041
CGGTAGTA,0.0264
ATGTAGCG,0.00382
GTCCGACA,-0.155
TATAGCGA,0.189
AGATGATC,0.14
AAAGAACC,-0.0738
CTCCCGTC,-0.182
ATAGTTTG,0.21
CCCACGCG,-0.318
AATCCCAC,-0.132
AGGATTCA,0.147
AGTTTCGC,-0.00601

# Study 3
# Target: RNA binding protein fox-1 homolog 2, RRM domain, GST-SBP tag (RBFOX2, Homo sapiens, UniProt O43251-10, residues 100-194)
# Technique: RNA Bind-n-Seq
# Molecule type: RNA
# Matrix: in vitro
# Concentration: 365 nM
# Notes: natural RNA segment, single round, ends assumed
# Reference: no-protein control
# Reading: higher = stronger binding
# Residues (chain): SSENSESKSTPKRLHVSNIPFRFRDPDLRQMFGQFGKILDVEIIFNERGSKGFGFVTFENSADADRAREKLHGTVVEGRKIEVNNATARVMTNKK
Strand,RBNS enrichment (R)
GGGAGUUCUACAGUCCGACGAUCCUGCAGGUGGUGCAUCAUCGUAUACACUAAGUGACAUUUCUAUCACAAUCAUUUUAUGGAAGAUGUGUGAUAAUCUGUUUUUACUGGUAUUAAUAAACACAUACAAUGAAUGGAAUUCUCGGGUGCCAA,0.621
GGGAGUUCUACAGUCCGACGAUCGCUAGUUCUCCUUCUUCUGUCUCCUCCUUACCCUGGCCCUGCACCCCUGUACUUAAGAGGGAGAGGUGGGAGGUGCUGUCUGGUAUCAUUUGCUGCCUCGCCAGUAGAGGUGGAAUUCUCGGGUGCCAA,0.64
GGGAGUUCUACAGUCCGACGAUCAGGACAGCGUGUGUGACACCCUGGCUGAGGCUGCUGCAGGUGGGCUGGAAGAGGCUCAGCGUUUGUGCUUGACUGCUGACCACCAGUGGUGCCAGAAGGCCUCAUCCUACUGGAAUUCUCGGGUGCCAA,1.79
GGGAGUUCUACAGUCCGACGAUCCCCAGAAAGCUUACCUGCGAGCUUGGGGUUUGGCUUGAGUUCUCUUUUCCUUGAUUUCUCAGUAGGUGCUAGAGUCCGUUCACACCCUUCACUGUGCGCGCAGACACUGAUGGAAUUCUCGGGUGCCAA,0.749
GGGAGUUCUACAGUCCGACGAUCUAAAACAUUUUAUGUUUUUUAGAUGCUUUAUUAAAUACAUGGCCAAACCAAAUAACAUCUUUCAGUAAUUAUAGAAUGAUUUAUUUGGAAUAAAAUUUGUGCUUAUGAAUUGGAAUUCUCGGGUGCCAA,0.555
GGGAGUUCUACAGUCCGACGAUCUGGAGACAAGAAAAAAUAAGUAGAUCGUUUUAAUAACAAUUAUUUAAUUGCCUAUAAGUUUGCUGUUUCAGAGGCUAGCCCAAAGGCAUCAAAUUUAAUAAAGUUAAACAUGGAAUUCUCGGGUGCCAA,0.39
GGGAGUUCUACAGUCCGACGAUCUGAAUGACCUGAUGUCAGAUUUAGAUUCUUCCUGGGGAUUACACAGCUAUGAAUGUAUUUGCUUCUAAAACCUCCCAAAGUGAAUCUAAUCUUAAAACUACAAGUUGUAAUGGAAUUCUCGGGUGCCAA,8.59
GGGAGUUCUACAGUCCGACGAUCUUACUUAUUCUAUUCAAGGCAUAGGGCCAAAGCAUUAAGUAUAAUUUAAUCCCAUACAUUCGAGUUAAGUUUAGUGUUGAUGUUCCAUCAUUCUGGACCUCCCAGGAGUUUGGAAUUCUCGGGUGCCAA,0.424
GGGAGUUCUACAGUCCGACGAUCAUUGAGCUCUGUUGUAAAUACAUCGCACCAGAGGCCACUGUGACGCCGCUGUCUCCUCCUCUCCAUCCCGCCCAGCCAUGUGACACCGGCUCUUGUAGAGGGCAUCCCCAUGGAAUUCUCGGGUGCCAA,0.431
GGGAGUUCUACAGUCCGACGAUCUUGAUGAAGAAAUGACAUAUAUUAUCUUUGAAUAUCUACAAGGAAAGUUACCAACUUAUGUAGGGGUGAAAUUUGGAUAGGCGGUAUGCUCAAAGCAGCCAGCAAUGAGUUGGAAUUCUCGGGUGCCAA,0.483
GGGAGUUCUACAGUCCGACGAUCUGGAAUAAUGGGCCAAACAUCUGGUCUUGCAUUGAAAUAGCAUUUCUUUGGGAUUGUGAAUAGAAUGUAGCAAAACCAGAUUCCAGUGUACUAGUCAUGGAUCUUUCUCUUGGAAUUCUCGGGUGCCAA,0.25
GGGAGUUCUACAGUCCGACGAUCUUGAUGGCUGCGAAGACCUACCCUCCGUUUUUCUACUAGAUAGGAGGAUGGUAGAAGUUUGGCUGCUGUCAUAACAUCCAGAGCUUUGUCGUAUUUGGCACACAGCAGAGUGGAAUUCUCGGGUGCCAA,0.191

# Study 4
# Target: Histone acetyltransferase KAT6A, winged helix 1, GST fusion (KAT6A, Homo sapiens, UniProt Q92794, residues 1-85)
# Technique: protein binding microarray
# Molecule type: double-stranded DNA, one strand shown
# Matrix: in vitro
# Concentration: not given
# Notes: 8-mer, flanks averaged, mean of 2 arrays, mostly near background
# Reference: not given
# Reading: higher = stronger binding
# Residues (chain): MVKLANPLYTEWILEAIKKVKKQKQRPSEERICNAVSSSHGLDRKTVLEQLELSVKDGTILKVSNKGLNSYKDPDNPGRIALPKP
Strand,E-score
ACGGAAGG,0.169
GACCGCGC,0.397
AGCGCTAT,0.233
GTCGTCAC,0.0146
TGATCCAA,-0.17
TCAAAAGA,-0.0348
CAAAGTTC,-0.235
GATATTGC,0.0176
CGGCGGTC,0.42
GTTAGTCA,0.15
AATCATCT,-0.202
ATAGGAGG,-0.111
ACGATGTA,-0.0712
GATTAGTA,0.00741
CGTATCTA,0.0577
ATAGCGGA,0.242
AGAAACAG,-0.0866
AGAGTAAA,0.0156
ATCGAACG,0.0325
ACCAGATA,-0.153
CATAGTAG,-0.0453
CTATTATC,-0.149
ATATAGGG,0.0197
AGGTCAAT,-0.0979

# Study 5
# Target: Interferon regulatory factor 5, full length, phosphomimetic (IRF5, Homo sapiens, UniProt Q13568-2, residues 1-514, K96S/S451D/S453D/S456D/S462D)
# Technique: protein-binding microarray
# Molecule type: double-stranded DNA, one strand shown
# Matrix: in vitro
# Concentration: 250 nM
# Notes: 60-bp whole probe
# Added: salmon DNA 0.4 mg/ml
# Reference: random background probes
# Reading: higher = stronger binding
# Shared flanks, not repeated: GCCTAGCAC … GTCTTGATTCGCTTGACGCTGCTG
Strand,log fluorescence
TTAGAACTGTGTTTCGATTAGTGCTAG,7.2 z-score
GACGAACTGAGACTGGAGATGTGCTAG,-0.534 z-score
AACGGTCTCGGACTGGGGACGTGCTAG,-0.113 z-score
TGCTTTCTCTTTCACTGCTGGTGCTAG,7.84 z-score
TTAGAACTGACTTTCGATTAGTGCTAG,9.79 z-score
TTAGGTTTCGGGAATGGGTTAGTGCTA,7.06 z-score
GACGGACTGCTTATCTTGACGTGCTAG,-0.647 z-score
TTAGGATTGGGTTTCGGTTAGTGCTAG,8.3 z-score
GACGGTCTCCTACAGCTGACGTGCTAG,-0.313 z-score
TTAGTACTGCTACTGCTTTAGTGCTAG,-0.0995 z-score
TCAGAACTGAGTCTCGATTAGTGCTAG,0.596 z-score
GACGATCTCTGTTTCGAGACGTGCTAG,2.4 z-score
ACCCATCTCCAGTAGCCTAGCGTGCTA,-0.148 z-score
GACGGACTGGGGACTGGGTACGTGCTA,-0.643 z-score
GACGATTTCGGGTATCGGGACGTGCTA,4.53 z-score
GACGGTTTCGACTTTCGGGAAGTGCTA,8.43 z-score
TACGGACTGGACACTGGGGACGTGCTA,-0.403 z-score
GGTCTTCTGGGCTGTTTGGTCGTGCTA,-0.439 z-score
TTAGAACTGAGTTTCGATTCGTGCTAG,8.98 z-score
TTCGGTTTCGACTATCGGTTAGTGCTA,9.96 z-score

# Study 6
# Target: RING finger protein unkempt homolog, zinc fingers 1-6, SBP tag (UNK, Homo sapiens, UniProt Q9C0B0, residues 30-357)
# Sequence of UniProt Q9C0B0 (30-357, looked up): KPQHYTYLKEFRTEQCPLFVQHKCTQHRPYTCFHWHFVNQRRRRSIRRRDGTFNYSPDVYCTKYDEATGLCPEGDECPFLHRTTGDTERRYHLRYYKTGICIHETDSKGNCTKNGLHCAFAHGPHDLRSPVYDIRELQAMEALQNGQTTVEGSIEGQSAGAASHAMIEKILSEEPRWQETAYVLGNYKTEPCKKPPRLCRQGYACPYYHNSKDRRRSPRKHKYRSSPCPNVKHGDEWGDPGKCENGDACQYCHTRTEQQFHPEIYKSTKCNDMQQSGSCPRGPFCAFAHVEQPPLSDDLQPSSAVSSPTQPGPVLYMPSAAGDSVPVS
# Technique: RNA Bind-n-Seq
# Molecule type: RNA
# Matrix: in vitro
# Concentration: 100 nM
# Notes: RNA with constant flanks, vertebrate orthologous sites, ends assumed
# Reference: input RNA pool
# Reading: higher = stronger binding
Strand,bound/input enrichment
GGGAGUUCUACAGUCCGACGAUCUCCUGUGUAGAAAAUAAACUGGACUCCCCCUUCUGCUCCUCCCAGAAGCAAAAGACCAAAUAUAUUUCCUAUUCAUCAGAUUAUACUCUUCUGGUUUUGUUUUAUAUUAUUUUUACAUGCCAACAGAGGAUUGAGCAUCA,1.17 ratio
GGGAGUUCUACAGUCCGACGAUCUUACAAUCUUAAAUCGGUAUUUUCAAACAGUAGGAACUCUCUUUUUCUUUUUUUACAGUUCAGUGUAUCUGGUUUCUACAUGGAAGACUAAACUCAUGCUUCUUGCUAAUUGUGGUUUUUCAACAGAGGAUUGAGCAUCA,0.366 ratio
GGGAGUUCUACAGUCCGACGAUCGAUCAAUAGGAUUACAUAAUAUUAAAGUUGCAGUUGAACAGAUAUCCCAGUAUGUGUUGAUAGUUACUAACGGAAUUAUAGCUGGUAUUGCCUUGUAUUUAUAGCCCUUUUUCAGGUUUCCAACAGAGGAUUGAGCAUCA,1.28 ratio
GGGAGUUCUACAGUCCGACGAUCCGGCUGAUUCGCUCAUCGGAAGAGCUGCACACAUAGCUGUUCUUGAUUCUGAGAUAUUUUUAGAGAAGUUUUUCCUGGUUGCCGCCCUCAAAUAUUUUCAGUAGGACCGAAGCAUCAUUACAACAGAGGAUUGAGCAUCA,0.841 ratio
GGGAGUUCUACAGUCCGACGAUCAUGUAGUUCGUUUUUAAUUUCAAGCAAAAUCUUAUUGUACUUGAAUGUGCCCUGUUUUGUUAGCACACCUAGACUUGCUGUAACUGUACUCAUGUCCCAGUAUGUACGUUCUUUCUAUGACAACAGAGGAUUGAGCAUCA,0.917 ratio
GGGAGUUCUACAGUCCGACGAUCCACAUCUGGUGAUAUUUGGCCUGGCCUUUCAGCUUAUGAUAAUAGUCCCAGAUCACCCCAUAGUCCUUCACCUAUUGCUACACCACCUAGUCAGAGUUCAUCUUGCUCAGAUGCCCCUAUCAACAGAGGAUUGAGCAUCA,1.24 ratio
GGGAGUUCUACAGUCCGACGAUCUUUUGUUUUGUUUUGUUUUCUUUUUUUUUUAUCCUCACCCCCCUCCCUUGAUUUUGGUUUCAGGGCUGGGUGGGCUGUGCACAUGCCUCUGAGACCAGAACUGUCUGGUUCAUCUGUACUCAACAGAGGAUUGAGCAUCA,0.564 ratio
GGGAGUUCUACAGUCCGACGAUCCUCUAUGGGCCUCGCAGAGUUGAAAUAAUGGAAGAGGAAAGUGAAUAGUGAUCUUCAUUUUAGUAUUUAUGCUUAGGUAUGAAAAUAAAUGUUAUUUGUUGAUUAUUUCUAUAAUCCAGACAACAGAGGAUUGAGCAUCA,0.692 ratio
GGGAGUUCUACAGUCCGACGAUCUCCUCAACUUGUUGUAGCUUGUGAUCCUUCAAAGUUGGGUCAGGCAUUAGUGCUAGAUACUAGAAAUUUUCAUUUCCCUGUUGCUAUUGAUCAGAGAGACAGGCAUUAAUUAAAAACAAACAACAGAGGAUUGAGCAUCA,0.993 ratio
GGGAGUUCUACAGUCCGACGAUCCAACUCAAUGGUGGAGGGCUCUGAACUCAAGAAGGUUCGUUCAAACUCCAGAAUUUACCAUCGGUACUUUCUGCUGGACGCCGACAUGCAAAGCCUGAGGUGGGAGCCAUCCAAGAAGGACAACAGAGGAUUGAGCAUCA,0.0909 ratio
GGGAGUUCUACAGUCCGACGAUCGCAGGGAUGGCCCAAUCCCACCACUGUUGAGUCUGUAAACUUCGAUCUGUAAAUAACGUUUAGCAUUCCUAUUGUAACAAAAUUAAUUUUUACAAAAUAAAUUAUAUUUCCUAGUCUAAUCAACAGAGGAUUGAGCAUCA,0.625 ratio

# Some of these lines once more (study 4):
Strand,E-score
CTATTATC,-0.149
ACGATGTA,-0.0712
GATATTGC,0.0176
AGCGCTAT,0.233
TGATCCAA,-0.17
ATCGAACG,0.0325
GTCGTCAC,0.0146
